# Experimental data of several laboratories.
# Numbers after ± are the reported error.
Compound,test,test system,conditions,scale,endpoint,result
COC(=O)C[C@](O)(CCCC(C)(C)OC(C)=O)C(=O)O[C@@H]1C(OC)=C[C@]23CCCN2CCc2cc4c(cc2[C@H]13)OCO4,,"CD1 mouse, esophagus","oral, 1 mg/kg, 0.5 h",,concentration,406 ng/mL
CC[C@H](C)[C@H](NC(=O)CNC(=O)[C@H](C)NC(=O)[C@@H](NC(=O)CNC(=O)[C@H](CCCNC(=N)N)NC(=O)[C@@H](NC(=O)[C@H](CCCNC(=N)N)NC(=O)[C@H](CCC(=O)O)NC(=O)CNC(=O)[C@H](CCCNC(=N)N)NC(=O)[C@H](CCCCN)NC(=O)[C@H](C)NC(=O)[C@H](Cc1c[nH]cn1)NC(=O)CNC(=O)[C@H](CCCCN)NC(=O)[C@H](CCCNC(=N)N)NC(=O)[C@H](C)NC(=O)[C@H](Cc1ccc(O)cc1)NC(=O)[C@H](C)NC(=O)[C@H](CC(C)C)NC(=O)[C@H](CC(C)C)NC(=O)CN)C(C)C)[C@@H](C)O)C(=O)N[C@@H](CCCNC(=N)N)C(=O)N[C@@H](Cc1ccccc1)C(=O)N[C@@H](CC(C)C)C(=O)N[C@@H](Cc1ccc(O)cc1)C(=O)N[C@@H](C)C(=O)N[C@@H](C)C(=O)N1CCC[C@H]1C(=O)N[C@@H](CCCNC(=N)N)C(=O)N[C@@H](CCCNC(=N)N)C(=O)O,,100% human serum,"27 µM, 37 °C, heat-inactivated serum",,onset of degradation,2 min
CN(C)C(CNC(=O)Nc1cc(C(F)(F)F)ccc1N1CCOCC1)c1ccncc1 (stereo not drawn),,"mouse, serum","intraperitoneal, 120 mg/kg single dose",,serum sodium,145 mmol/L
N#CC1(c2ccc3c(N)ncnn23)OC(COP(=O)(O)OP(=O)(O)OP(=O)(O)O)C(O)C1O (stereo not drawn),LC-MS/MS,"male CD-1 mice, lung","oral, 100 mg/kg of remdesivir",,last detectable time,≤ 4 h
O=c1cc(-c2ccccc2)oc2c(Br)c(O)c(O)c(O)c12,,"C57BL/6 mouse, plasma","intravenous, 10 mg/kg",,time to fall to EC99,~1 h
"O=C(c1ccc(F)cc1)C1CCN(C2Cc3c(cccc3OCC[18F])CC2O)CC1 (single isomer, unassigned; (-))",,"Sprague-Dawley rat, male, liver","intravenous, dose not given, 5 min",,tissue uptake,1.06 ± 0.121 %ID/g
CCOC(=O)[C@@H]1Cc2c(cc([N+](=O)[O-])cc2[N+](=O)[O-])[C@H](O)[C@]12C(=O)Nc1ccc(Br)cc12,,"BALB/c nude mice, xenograft","ip, 30 mg/kg/day, four daily doses, 1 h",,plasma concentration,< 100 nM
CC(C)C[C@@H]1NC(=O)[C@@H](Cc2c[nH]c3ccccc23)NC(=O)[C@H](CCCNC(=N)N)NC(=O)[C@@H](CCC(=O)O)NC(=O)[C@H](CCC(N)=O)NC(=O)[C@@H](CCC(=O)O)NC(=O)[C@H](CCCNC(=N)N)NC(=O)[C@@H](Cc2c[nH]c3ccccc23)NC1=O,LC-MS,male BALB/cByJ mice,"intraperitoneal, 16 mg/kg",,plasma half-life,~6 h
CC(C)(CCCC/C=C/CCCCCC(C)(C)C(=O)O)C(=O)O,,"rhesus monkeys, spontaneous hyperlipidemia, plasma","20 mg/kg, 2 weeks",,plasma AST and ALT,decreased
Cc1ccnc(-c2cc(C)ccn2)c1.O.[C-]#[O+].[C-]#[O+].[C-]#[O+].[Re+],"RP-HPLC C18 column, item: free diimine ligand","MeCN:water 40:60, 0.1% TFA",isocratic elution,,capacity factor,0.66
CCCCCCCCCCCCCCCC(=O)N[C@@H](CCC(=O)NCCCC[C@H](NC(=O)[C@H](CC(=O)O)NC(=O)[C@H](CO)NC(=O)[C@@H](NC(=O)[C@H](Cc1ccccc1)NC(=O)[C@@H](NC(=O)CNC(=O)[C@H](CCC(N)=O)NC(=O)[C@H](C)NC(=O)[C@@H](Cc1ccc(O)cc1)NC(C)=O)[C@@H](C)O)[C@@H](C)O)C(=O)N[C@@H](CO)C(=O)N[C@@H](CCCCN)C(=O)N[C@@H](Cc1ccc(O)cc1)C(=O)N[C@@H](CC(C)C)C(=O)N[C@@H](CC(=O)O)C(=O)N[C@@H](CCC(=O)O)C(=O)N[C@@H](CCCNC(=N)N)C(=O)N[C@@H](C)C(=O)N[C@@H](C)C(=O)N[C@@H](CCC(N)=O)C(=O)N[C@@H](CC(=O)O)C(=O)N[C@@H](Cc1ccccc1)C(=O)N[C@H](C(=O)N[C@@H](CCC(N)=O)C(=O)N[C@@H](Cc1c[nH]c2ccccc12)C(=O)N[C@@H](CC(C)C)C(=O)N[C@@H](CC(C)C)C(=O)N[C@@H](CCC(=O)O)C(=O)NCC(=O)NCC(=O)N1CCC[C@H]1C(=O)N[C@@H](CO)C(=O)N[C@@H](CO)C(=O)NCC(=O)N[C@@H](C)C(=O)N1CCC[C@H]1C(=O)N1CCC[C@H]1C(=O)N1CCC[C@H]1C(=O)N[C@@H](CO)C(N)=O)C(C)C)C(=O)O,,"male cynomolgus monkey, plasma",subcutaneous,,half-life,~6 h
CC(C)C[C@H](NC(=O)[C@H](CCCCN)NC(=O)[C@H](CCC(=O)O)NC(=O)[C@H](C)NC(=O)[C@@H](NC(=O)[C@H](CCCCN)NC(=O)[C@H](CC(=O)O)NC(=O)[C@H](Cc1ccc(O)cc1)NC(=O)[C@H](Cc1ccccc1)NC(=O)[C@H](C)NC(=O)[C@H](CCCCN)NC(=O)[C@H](CC(C)C)NC(=O)[C@H](Cc1c[nH]c2ccccc12)NC(=O)[C@@H](N)CC(=O)O)C(C)C)C(=O)N[C@@H](CCCCN)C(=O)N[C@@H](CCC(=O)O)C(=O)N[C@@H](C)C(=O)N[C@@H](Cc1ccccc1)C(=O)N1CCC[C@H]1C(=O)N[C@@H](CC(=O)O)C(=O)N[C@@H](Cc1c[nH]c2ccccc12)C(=O)N[C@@H](C)C(=O)N[C@@H](CCCCN)C(=O)N[C@@H](C)C(=O)N[C@@H](C)C(=O)N[C@@H](Cc1ccc(O)cc1)C(=O)N[C@@H](CC(=O)O)C(=O)N[C@@H](CCCCN)C(=O)N[C@@H](C)C(=O)N[C@@H](C)C(=O)N[C@@H](CCC(=O)O)C(=O)N[C@@H](CCCCN)C(=O)N[C@@H](C)C(=O)N[C@@H](CCCCN)C(=O)N[C@@H](CCC(=O)O)C(=O)N[C@@H](C)C(=O)N[C@@H](C)C(=O)O,,"cynomolgus monkey male, plasma","intravenous infusion, 75 mg/kg every other day, day 27",,volume of distribution at steady state,0.057 L/kg
CC(C)[C@H](NC(=O)CNC(=O)[C@H](CCC(N)=O)NC(=O)[C@H](C)N)C(=O)O,,healthy male volunteers,"intravenous, 45 mg/kg/h, 2 h, with: LPS 2 ng/kg",,subjects with serious AE,0%
CC(C)C[C@@H](N)C(=O)NCC(=O)N[C@H](C)C(=O)N[C@H](CO)C(=O)N[C@H](Cc1c[nH]c2ccccc12)C(=O)N[C@H](Cc1c[nH]cn1)C(=O)N[C@H](CCCNC(=N)N)C(=O)N1CCC[C@@H]1C(=O)N[C@H](CC(=O)O)C(=O)N[C@H](CCCCN)C(=O)N[C@H](CS)C(=O)N[C@H](CS)C(=O)N[C@H](CC(C)C)C(=O)NCC(=O)N[C@H](Cc1ccc(O)cc1)C(=O)N[C@H](CCC(N)=O)C(=O)N[C@H](CCCCN)C(=O)N[C@H](CCCNC(=N)N)C(=O)N1CCC[C@@H]1C(=O)N[C@H](CC(C)C)C(=O)N1CCC[C@@H]1C(N)=O,LC-MS/MS,rat plasma,"500 ng/mL, -80 to 25 °C, 3 freeze-thaw cycles",reference: nominal,accuracy,95.3%
COc1cc(NC(=O)C(=O)c2c(C)n(Cc3ccc(Cl)cc3)c3ccc(C)cc23)ccn1,,"cynomolgus monkey, plasma","intravenous, 1 mg/kg",,AUC(0-inf),1970 ng·h/mL
CC[C@H](C)C(=O)N1CCC(NC(=O)Nc2ccc(OC(F)(F)F)c(F)c2)CC1,,healthy volunteers,"oral, 8 mg single tablet, fasted and fed states",,tolerability,not toxic
C[C@@H](O)[C@H](NC(=O)[C@H](CCC(=O)O)NC(=O)[C@H](Cc1ccccc1)NC(=O)[C@H](Cc1c[nH]c2ccccc12)NC(=O)[C@H](CCCCN)NC(=O)[C@H](CCCCN)NC(=O)[C@H](CCCCN)NC(=S)Nc1ccc2c(c1)C(=O)OC21c2ccc(O)cc2Oc2cc(O)ccc21)C(=O)N[C@@H](Cc1c[nH]c2ccccc12)C(=O)N[C@@H](Cc1ccccc1)C(=O)N[C@H](C(=O)N[C@@H](CCC(=O)O)C(=O)N[C@@H](Cc1c[nH]c2ccccc12)C(=O)N1CCC[C@H]1C(=O)N[C@@H](CCCCN)C(=O)N[C@@H](CCCCN)C(=O)N[C@@H](CCCCN)C(=O)N[C@@H](CCCCN)C(=O)O)[C@@H](C)O,SDS-PAGE,human corneal epithelial lysate,"concentration not given, 24 h",,stability,stable
CC[C@H](C)[C@H](NC(=O)[C@@H](NC(=O)[C@H](CCCNC(=N)N)NC(=O)[C@H](CO)NC(=O)[C@H](CCCCN)NC(=O)[C@H](CC(C)C)NC(=O)[C@H](C)NC(=O)[C@H](CC(=O)O)NC(=O)[C@@H]1CCCN1C(=O)[C@H](CCC(N)=O)NC(=O)[C@@H]1CCCN1C(=O)[C@@H]1CCCN1C(=O)[C@H](CCCNC(=N)N)NC(=O)[C@H](CCCNC(=N)N)NC(=O)[C@H](CCCNC(=N)N)NC(=O)[C@H](CCC(N)=O)NC(=O)[C@H](CCCNC(=N)N)NC(=O)[C@H](CCCNC(=N)N)NC(=O)[C@H](CCCCN)NC(=O)[C@H](CCCCN)NC(=O)[C@H](CCCNC(=N)N)NC(=O)CN)[C@@H](C)O)C(=O)N[C@@H](CCCNC(=N)N)C(=O)O,,"mouse, hippocampus","intranasal, dose not given",,hippocampal detection,not detected
CCCCCCCCCCCCC(=O)O.O=C1CCCC2C3CCCN4CCCC(CN12)C34 (stereo not drawn),,water,"concentration not given, 298.15 K",,critical micelle concentration,0.0024 mol/kg
CC(C)[C@H](NC(=O)CNC(=O)[C@H](CCC(N)=O)NC(=O)[C@H](C)N)C(=O)O,,human,10 mg/kg single dose,,subjects with mild adverse events,33.3%
C/C=C/C=C/C/C=C/CCCCCCCc1cccc(O)c1O,,"female Kunming mice, tumour-bearing, kidneys","intravenous, 10 mg/kg, 12 h",,tissue concentration,1320 ± 390 ng/g

# A few entries again:
Compound,test,test system,conditions,scale,endpoint,result
CC(C)C[C@@H](N)C(=O)NCC(=O)N[C@H](C)C(=O)N[C@H](CO)C(=O)N[C@H](Cc1c[nH]c2ccccc12)C(=O)N[C@H](Cc1c[nH]cn1)C(=O)N[C@H](CCCNC(=N)N)C(=O)N1CCC[C@@H]1C(=O)N[C@H](CC(=O)O)C(=O)N[C@H](CCCCN)C(=O)N[C@H](CS)C(=O)N[C@H](CS)C(=O)N[C@H](CC(C)C)C(=O)NCC(=O)N[C@H](Cc1ccc(O)cc1)C(=O)N[C@H](CCC(N)=O)C(=O)N[C@H](CCCCN)C(=O)N[C@H](CCCNC(=N)N)C(=O)N1CCC[C@@H]1C(=O)N[C@H](CC(C)C)C(=O)N1CCC[C@@H]1C(N)=O,LC-MS/MS,rat plasma,"500 ng/mL, -80 to 25 °C, 3 freeze-thaw cycles",reference: nominal,accuracy,95.3%
CN(C)C(CNC(=O)Nc1cc(C(F)(F)F)ccc1N1CCOCC1)c1ccncc1 (stereo not drawn),,"mouse, serum","intraperitoneal, 120 mg/kg single dose",,serum sodium,145 mmol/L
CC(C)(CCCC/C=C/CCCCCC(C)(C)C(=O)O)C(=O)O,,"rhesus monkeys, spontaneous hyperlipidemia, plasma","20 mg/kg, 2 weeks",,plasma AST and ALT,decreased
